# Results collected from several papers.
# Protocols differ between the studies behind these lines. “And” joins repeats or separate records; there may be more than shown. Numbers after ± are the reported error.
Compound,assay,test system,setting,how to read,endpoint,value
O=C(c1cccnc1-c1ccncc1)N1CCC(O)(Cc2ccccc2)CC1,,"healthy Japanese adults, plasma","oral, 100 mg twice daily, day 7",,AUCtau,224 ng·h/mL
C[C@@]1(c2cc(NC(=O)c3ccc(C#N)cn3)ccc2F)C=CSC(N)=N1,,"young male humans, plasma","oral, 1 mg, single dose",,dose-normalised Cmax,6.72 ng/mL
CCCCOc1nc(N)c2c(n1)N(Cc1cccc(CN3CCCC3)c1)CC(=O)N2,,human,"oral, 2 mg, drug interaction trial",,drug-related TEAE,6.7%
NC1(C(=O)N[C@@H](CCO)c2ccc(Cl)cc2)CCN(c2nc[nH]c3nccc2-3)CC1,,metastatic CRPC patients,"320 mg b.i.d., any grade, treatment-related, with: enzalutamide 160 mg daily",,incidence of Dysuria,0%
CNC(=O)c1ccc(-c2cnc3ncc(Cc4ccc5ncccc5c4)n3n2)cc1F,"CTCAE v4.0, any causality",human gastric cancer patients,"oral, 600 mg twice daily, expansion cohort at RP2D",,back pain incidence (all grades),11%
N=C(N)NCCNC(=O)C1(Nc2ccccc2)CCN(Cc2ccccc2)CC1,,"Sprague-Dawley rats (male), plasma","oral, 50 mg/kg",,clearance,0.9 ± 0.1 L/h
O=C(O)CCC(=O)O.[2H]C([2H])([2H])Oc1cc(C)c2[nH]ccc2c1CN1CC[C@@H](C2CC2)C[C@H]1c1ccc(C(=O)O)cc1,multiple ascending dose,healthy Chinese subjects,125 mg twice daily,,subjects with elevated LDL TEAE,0%
C[C@@H]1CN(c2c(F)c(N)c3c(=O)c(C(=O)O)cn(C4CC4)c3c2F)C[C@H](C)N1,starch gel membrane permeability,Gram-negative envelope surrogate,"200 µM, 90 min, pH 7.4",,amount permeated,1.97 nmol
COc1ccc2c3c([nH]c2c1)[C@H](CC(C)C)N1C(=O)[C@H](CC(=O)NC(C)C)NC(=O)[C@@H]1C3,,"wild-type mouse, male, serum","oral, 100 mg/kg, 1 h",,serum concentration,44100 nM and 28100 nM and 39600 nM
Cc1ccc([C@@H]2O[C@H](CO)[C@@H](O)[C@H](O)[C@H]2O)cc1Cc1ccc(-c2ccc(F)cc2)s1,,Japanese type 2 diabetes patients,"400 mg, day 4, 24 h urine collection",reference: baseline,urinary magnesium excretion change,-3.36 mg
CCCCCCCCOc1ccc(C(=O)c2ccccc2)c(O)c1,,EpiSkin reconstructed epidermis,"concentration not given, 36 h",,amount in receptor fluid,not detected
N#Cc1ccc2c(c1)[C@H]1CCCN(C(=O)c3ccc4[nH]cnc4c3)[C@H]1C2,,"human, plasma","20 mg once daily, day 21",,pre-dose plasma concentration,513 nmol/L
CN1CCN(c2cccc3c2CCN(C(=O)/C=C/c2c(-n4cnnn4)ccc(Cl)c2F)[C@@H]3C(=O)Nc2ccc(C(=O)O)cc2)C(=O)C1,,healthy human subjects,"intravenous infusion, 20 mg/h, 5 days",,subjects with skin irritation,12.5%
O=C(O)c1cc(O)cc(O)c1,,human plasma,"mean, both sexes",,plasma concentration,2570 nM
C=CC(=O)N(C)CCOc1c(N)ncnc1-c1cc(F)cc(NC(=O)c2ccc(C3CC3)cc2F)c1C,,"human, whole blood","oral, 25 mg once daily, day 12",,Cmax,85.9 ng/mL
C[C@@H](c1nc(-c2ccc(C#N)cc2)cs1)[C@](O)(Cn1cncn1)c1cc(F)ccc1F,refers to: infections and infestations (SOC),humans,"oral, dose not given, with: ketoconazole",,subjects with TEAEs,0%
CCn1cc(C(=O)O)c(=O)c2cc(F)c(N3CCNCC3)cc21,starch gel membrane permeability,Gram-negative envelope surrogate,"200 µM, 30 min, pH 7.4",,amount permeated,2.07 nmol
[18F]c1ccc(-c2ccc3c(c2)[nH]c2ccncc23)cn1,ex vivo biodistribution,"APP/PS1 mouse, AD model, spleen","intravenous, 30 min",,SUV,2.5 ± 0.635
Cc1cc(C)c(CNC(=O)c2cc(Cl)c3c(c2C)O[C@@](C)([C@H]2CC[C@H](N(C)C)CC2)O3)c(=O)[nH]1,refers to: Pain,human patients,"oral, 200 mg once daily, 1 day onset day 14",,patients with grade ≥3 TEAE,0%
C=CC(=O)Nc1cc(Nc2nccc(-c3cn(C)c4ccccc34)n2)c(OC)cc1N(C)CCN(C)C,storage stability,human dried blood spots,"24 h, on ice, medium QC level",,recovery,77.7%
CCc1cc(C(=O)NC)c2nccc(N3CCc4c(cc(Cn5ccnc5)cc4-c4cn(C)nc4C(F)(F)F)C3=O)c2c1,refers to: UREA,Sprague Dawley rat,"oral, 100 mg/kg once daily, 7 days",reference: vehicle,change in clinical chemistry or haematology parameter,0.6%
O=C(O)c1ccc(O)cc1,,human plasma,"median, both sexes",,plasma concentration,712 nM
CCC(C)n1ncn(-c2ccc(N3CCN(c4ccc(OCC5COC(Cn6cncn6)(c6ccc(Cl)cc6Cl)O5)cc4)CC3)cc2)c1=O (centres unmarked),,healthy human volunteers,"oral, 200 mg, event Flatulence, continued dosing",,adverse events,0%
NC[C@H]1O[C@H](O[C@H]2[C@H](O)[C@@H](O[C@H]3O[C@H](CO)[C@@H](O)[C@H](N)[C@H]3O)[C@H](N)C[C@@H]2N)[C@H](N)C[C@@H]1O,starch gel membrane permeability,Gram-negative envelope surrogate,"200 µM, 60 min, pH 7.4",,amount permeated,1.52 nmol
O=C(O)CCc1ccc(O)c(O[C@@H]2O[C@H](C(=O)O)[C@@H](O)[C@H](O)[C@H]2O)c1,,human plasma,median,,plasma concentration,226 nM
CCOc1c([C@H](C)n2nc(C)c3c(N)ncnc32)cc(Cl)c(F)c1[C@@H]1CNC(=O)C1,ECG,previously treated B-cell malignancy patients,"oral, 30 mg once daily, baseline below thresholds",,observations with PR ≤200 ms,86.3%
CC(=O)O[C@H]1C[C@@]2(C)[C@@H](C[C@@H](O)[C@H]3[C@@]4(C)CC[C@@H](O)[C@@H](C)[C@@H]4CC[C@@]32C)/C1=C(\CCC=C(C)C)C(=O)O,starch gel membrane permeability,Gram-negative envelope surrogate,"200 µM, 60 min, pH 7.4",,amount permeated,0.49 nmol
O=C(O)c1ccc(O)cc1O,,human plasma,"median, both sexes",,plasma concentration,10500 nM
C[C@@H](Oc1ccc(S(C)(=O)=O)cc1C(=O)N1C[C@@H]2C[C@]2(c2cc(C(F)(F)F)on2)C1)C(F)(F)F,,human,"oral plus intravenous microtracer, dose not given",,subjects with nervous system disorders,16.7%
O=c1c(O)c(-c2ccc(O)c(O)c2)oc2cc(O)cc(O)c12,,human plasma,"median, both sexes",,plasma concentration,312 nM
O=C(Nc1ccc(OC(F)(F)Cl)cc1)c1cnc(N2CC[C@@H](O)C2)c(-c2ccn[nH]2)c1,"per laboratory record, refers to: lipase increase",human patients,"oral, dose not given, dose-finding study",,grade ≥3 event rate,1.5%
CC(C)(Sc1ccncc1-c1ccc(C#N)c2ccccc12)C(=O)O,,"human, plasma","oral, 5 mg once daily, with: febuxostat 10 mg",,AUC(0-24),87.6 ng·h/mL
COc1ccc2c(c1)CN(C(=O)CCN1CCC(Cc3ccccc3)CC1)CC[S@@+]2[O-],telemetry,conscious male beagle dogs,"intravenous, 4 mg/kg, 2 h",,PQ interval,92 ± 6 ms
Cc1nc2ccc(OCc3ccc(C(F)(F)F)cc3)cc2[nH]1,,"male Balb/c mice, heart","oral, 10 mg/kg, 72 h",reference: tissue over plasma,tissue/plasma ratio,5.3 ± 2.6
Cc1c2oc3c(C)ccc(C(=O)N[C@@H]4C(=O)N[C@H](C(C)C)C(=O)N5CCC[C@H]5C(=O)N(C)CC(=O)N(C)[C@@H](C(C)C)C(=O)O[C@@H]4C)c3nc-2c(C(=O)N[C@@H]2C(=O)N[C@H](C(C)C)C(=O)N3CCC[C@H]3C(=O)N(C)CC(=O)N(C)[C@@H](C(C)C)C(=O)O[C@@H]2C)c(N)c1=O,,"children with cancer, plasma","dose not given, 30 min",,minimum plasma concentration,3.3 µg/L
CC(C)c1nc(N(C)S(C)(=O)=O)nc(-c2ccc(F)cc2)c1/C=C/[C@@H](O)C[C@@H](O)CC(=O)O,refers to: arthropod bite,healthy men,"oral, dose not given, 8 days, treatment-emergent, crossover trial",,subjects with adverse event,0%
O=C(Nc1nc2cccc(-c3ccc(CN4CCS(=O)(=O)CC4)cc3)n2n1)C1CC1,refers to: aspartate aminotransferase increased,human rheumatoid arthritis patients,"oral, 30 mg once daily, 4 weeks, regardless of relatedness",,treatment-emergent adverse events,5.9%
COc1ccc2nc([S+]([O-])Cc3ncc(CO)c(OC)c3C)[nH]c2c1 (centres unmarked),,"human, dried plasma spots","2 h, with: rifampicin pretreatment",reference: induced over baseline,R/S enantiomer ratio fold change,0.01
COc1cc([C@H]2Oc3ccc([C@H]4Oc5cc(O)cc(O)c5C(=O)[C@@H]4O)cc3O[C@@H]2CO)ccc1O,,"OATP1B1/1B3 humanized mice, plasma","oral gavage, 500 mg/kg silymarin, geometric mean",,AUC(0-4h),0.24 µM·h
O=C1NCCc2nc(OCc3cccc(F)c3)ccc21,modified Irwin test,"Sprague-Dawley rat, male","oral, 100 mg/kg, 4 h",,rectal temperature,36.1 °C
NCc1cc2c(cc1F)C(=O)N(C1CCC(=O)NC1=O)C2 (centres unmarked),,cynomolgus monkey,"oral, 0.3 mg/kg, 24 h",,plasma concentration,not detected
CN(CCC#N)C1CCN(C(=O)Cn2cc(NC(=O)c3cnn4cccnc34)c(-c3cc(Cl)ccc3OC(F)F)n2)CC1,gamma scintigraphy,human,"inhalation, 1 mg single dose",reference: emitted dose,oropharyngeal deposition,9.7%
COc1ncc(-c2nc3c(n2C(C)C)[C@H](c2ccc(Cl)cc2)N(c2cc(Cl)cn(C)c2=O)C3=O)c(OC)n1,LC-MS/MS,"human, plasma","oral, 1 mg, cycle 1 day 14, low-dose arm",,AUC(0-last),99.5 ng·h/mL
C[C@@H](N)C1CCN(S(=O)(=O)c2cccc3cnccc23)CC1,,healthy volunteers,"150 mg, fasted",,"participants, with TEAEs, treatment-related",33.3%
O=C(O)/C=C/c1cccc(O)c1,,human plasma,median,,plasma concentration,1560 nM
O=c1c2ccccc2oc2ccccc12,,tricaprin-tricaprylin mixture,"30 °C, tricaprin fraction 0.17",,solubility,0.04 mole fraction
O=C(COc1ccc(Cl)cc1)NC12CC(c3nnc([C@H]4C[C@@H](OC(F)(F)F)C4)o3)(C1)C2,,human both sexes,"oral, 100 mg once daily, 14 days",,drug-related TEAE participants,85.7%
FC(F)(F)c1ccc(CNc2ccc(Cc3c[nH]c4ncc(Cl)cc34)cn2)cn1,refers to: Arthralgia,"patients with advanced solid tumours, all cohorts","oral, 1000 mg/day, any grade",,treatment-related adverse events,4%
C=CC(=O)NC1CCN(c2ncc3ncnc(Nc4ccc(Oc5ccc6c(c5)ncn6C)c(C)c4)c3n2)CC1,,healthy humans,,,tolerability,not toxic
CC(C)(C(=O)N1CCOc2c(C#N)cncc2C1)C(F)F,,"human, both sexes","oral, 20 mg single dose",,subjects with fatigue TEAE,0%
O=C(O)c1cc(O)c(O)c(O)c1,,human plasma,"median, both sexes",,plasma concentration,15.1 nM
Cc1cccc(Cn2cc(CO)c3cnccc32)c1,,"male F344 rat, serum","oral, 100 mg/kg/day, 2 days",,ALT,71 U/L
N#Cc1ccc2c(c1)[C@H]1CCCN(C(=O)c3ccc4[nH]cnc4c3)[C@H]1C2,,"human, male","20 mg, day 7",,androstenedione level,7.2 nmol/L
COc1ccc([C@@H](O)c2cc(-c3ncnc4cc(N5CCOCC5)ccc34)c(F)cc2Cl)nn1,,locally advanced rectal cancer,"oral, 150 mg, with: capecitabine and radiotherapy",,radiation skin injury TEAE,33%
COc1ccc(C(=O)O)c(O)c1,,human plasma,median,,plasma concentration,132 nM
CNC(=O)c1ccc(-c2cnc3ncc(Cc4ccc5ncccc5c4)n3n2)cc1F,,Japanese patients,"oral, 400 mg, any grade",,Amylase increased dose reduction/interruption,3%

# Excerpt of the above:
Compound,assay,test system,setting,how to read,endpoint,value
CCOc1c([C@H](C)n2nc(C)c3c(N)ncnc32)cc(Cl)c(F)c1[C@@H]1CNC(=O)C1,ECG,previously treated B-cell malignancy patients,"oral, 30 mg once daily, baseline below thresholds",,observations with PR ≤200 ms,86.3%
CC(=O)O[C@H]1C[C@@]2(C)[C@@H](C[C@@H](O)[C@H]3[C@@]4(C)CC[C@@H](O)[C@@H](C)[C@@H]4CC[C@@]32C)/C1=C(\CCC=C(C)C)C(=O)O,starch gel membrane permeability,Gram-negative envelope surrogate,"200 µM, 60 min, pH 7.4",,amount permeated,0.49 nmol
O=C(O)c1ccc(O)cc1O,,human plasma,"median, both sexes",,plasma concentration,10500 nM
C[C@@H](Oc1ccc(S(C)(=O)=O)cc1C(=O)N1C[C@@H]2C[C@]2(c2cc(C(F)(F)F)on2)C1)C(F)(F)F,,human,"oral plus intravenous microtracer, dose not given",,subjects with nervous system disorders,16.7%
O=c1c(O)c(-c2ccc(O)c(O)c2)oc2cc(O)cc(O)c12,,human plasma,"median, both sexes",,plasma concentration,312 nM
O=C(Nc1ccc(OC(F)(F)Cl)cc1)c1cnc(N2CC[C@@H](O)C2)c(-c2ccn[nH]2)c1,"per laboratory record, refers to: lipase increase",human patients,"oral, dose not given, dose-finding study",,grade ≥3 event rate,1.5%
CC(C)(Sc1ccncc1-c1ccc(C#N)c2ccccc12)C(=O)O,,"human, plasma","oral, 5 mg once daily, with: febuxostat 10 mg",,AUC(0-24),87.6 ng·h/mL
COc1ccc2c(c1)CN(C(=O)CCN1CCC(Cc3ccccc3)CC1)CC[S@@+]2[O-],telemetry,conscious male beagle dogs,"intravenous, 4 mg/kg, 2 h",,PQ interval,92 ± 6 ms
